{"data": "Assay results of several laboratories", "LYN": "Tyrosine-protein kinase Lyn (LYN, Homo sapiens, UniProt P07948)", "LYN isoform B": "Tyrosine-protein kinase Lyn, isoform B (LYN, Homo sapiens, UniProt P07948)", "LYN isoform A": "Tyrosine-protein kinase Lyn, isoform A (LYN, Homo sapiens, UniProt P07948)", "UCHL1": "Ubiquitin carboxyl-terminal hydrolase isozyme L1 (UCHL1, Homo sapiens, UniProt P09936)", "note": "± marks the error that the study gave.", "UniProt P07948, sequence (whole entry, looked up)": "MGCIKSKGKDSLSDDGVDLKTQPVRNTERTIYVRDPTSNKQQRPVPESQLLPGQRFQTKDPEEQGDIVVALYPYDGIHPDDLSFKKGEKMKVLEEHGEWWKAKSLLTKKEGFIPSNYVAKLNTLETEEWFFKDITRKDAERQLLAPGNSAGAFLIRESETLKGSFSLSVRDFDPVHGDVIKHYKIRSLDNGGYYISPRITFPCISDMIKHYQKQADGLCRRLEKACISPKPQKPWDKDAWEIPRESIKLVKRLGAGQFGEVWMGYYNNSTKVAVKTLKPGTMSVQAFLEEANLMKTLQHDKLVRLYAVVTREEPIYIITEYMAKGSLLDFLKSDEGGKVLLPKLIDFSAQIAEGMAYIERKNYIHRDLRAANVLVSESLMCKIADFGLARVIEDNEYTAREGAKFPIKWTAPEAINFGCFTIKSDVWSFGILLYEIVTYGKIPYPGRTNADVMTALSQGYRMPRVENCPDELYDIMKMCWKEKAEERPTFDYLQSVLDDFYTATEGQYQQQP", "UniProt P09936, sequence (whole entry, looked up)": "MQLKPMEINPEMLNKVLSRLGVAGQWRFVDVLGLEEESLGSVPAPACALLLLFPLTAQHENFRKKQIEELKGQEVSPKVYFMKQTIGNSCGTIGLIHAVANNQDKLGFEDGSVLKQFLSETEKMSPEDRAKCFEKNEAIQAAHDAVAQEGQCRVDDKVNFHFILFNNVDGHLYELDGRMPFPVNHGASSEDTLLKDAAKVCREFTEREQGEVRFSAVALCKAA"}
{"Compound": "C=CC(=O)N1CCC[C@@H](n2nc(-c3ccc(Oc4ccccc4)cc3)c3c(N)ncnc32)C1", "target": "LYN", "assay": "kinase activity, inhibitor, HotSpot radiometric", "conditions": "100 nM, added: ATP 10 µM", "quantity": "remaining activity", "value": "25.3 ± 0.1%"}
{"Compound": "CC(C)(O)[C@H]1CC[C@H](Nc2ccc3ncc(-c4cccc(C(F)(F)F)c4)n3n2)CC1", "target": "LYN isoform B", "assay": "enzyme activity, inhibitor", "conditions": "1 µM, added: 10 µM ATP", "scale": "baseline: DMSO", "quantity": "remaining activity", "value": "94.5%"}
{"Compound": "COc1ccc(F)cc1C(=O)NCc1ccc(-c2nn([C@@H](C)C(F)(F)F)c(N)c2C(N)=O)cc1", "target": "LYN isoform B", "assay": "kinase activity, inhibitor, HotSpot radiometric", "conditions": "1000 nM, added: ATP at Km", "quantity": "remaining activity", "value": "90 ± 1.9%"}
{"Compound": "CCOc1cc(-c2nncn2C)ccc1Nc1ncc2cc(C)nc(NCC(C)(C)C)c2n1", "target": "LYN", "assay": "kinase activity, Z'-LYTE", "conditions": "1 µM", "quantity": "inhibition", "value": "< 15%"}
{"Compound": "COc1cc2ncnc(Nc3ccc(Oc4ccccc4)cc3C)c2cc1OC", "target": "LYN", "assay": "kinase activity, inhibitor", "conditions": "1 µM", "quantity": "inhibition", "value": "90%"}
{"Compound": "C=CC(=O)N1CCC(COCC(=O)N2CCN(c3nc(-c4cnc(N)nc4C(F)F)nc(N4CCOC[C@@H]4C)n3)CC2)CC1", "target": "LYN", "assay": "KINOMEscan", "conditions": "1 µM", "quantity": "remaining binding", "value": "90%"}
{"Compound": "[2H]c1cc(C)c(NC(=O)c2cnc(Nc3cc(N4CCCCC4)nc(C)n3)s2)c(Cl)c1", "target": "LYN isoform A", "conditions": "0.0001 µM", "quantity": "inhibition", "value": "> 50%"}
{"Compound": "CC#CC(=O)N1CCC[C@H]1c1nc(-c2ccc(C(=O)Nc3ccccn3)cc2)c2c(N)nccn12", "target": "LYN isoform B", "assay": "kinase activity, inhibitor, HotSpot radiometric", "conditions": "100 nM, added: ATP 10 µM", "quantity": "remaining activity", "value": "99.4 ± 1.8%"}
{"Compound": "CN(C)c1oc(-c2ccc(S(=O)(=O)N(C)C)cc2)nc1C#N", "target": "UCHL1", "assay": "covalent, intact protein LC-MS", "conditions": "12.5 µM", "quantity": "labelling", "value": "11.9%"}
{"Compound": "Cc1nc(Nc2ncc(C(=O)Nc3c(C)cccc3Cl)s2)cc(N2CC[C@H](O)C2)n1", "target": "LYN isoform A", "conditions": "0.001 µM", "quantity": "inhibition", "value": "95%"}
{"Compound": "N#CC(=Cc1csc2ccccc12)C(=O)NCc1ccco1", "target": "UCHL1", "assay": "covalent, intact protein LC-MS", "conditions": "12.5 µM", "quantity": "labelling", "value": "14.2%"}
{"Compound": "[2H]c1cc(C)c(NC(=O)c2cnc(Nc3cc(N4CCC(O)CC4)nc(C)n3)s2)c(Cl)c1", "target": "LYN isoform B", "conditions": "0.001 µM", "quantity": "inhibition", "value": "> 50%"}
{"Compound": "CC/C(=N\\NC(=O)NCc1cccc(O)c1)c1ccc(O)c(C)c1O", "target": "LYN isoform A", "assay": "kinase activity", "conditions": "0.1 µM", "quantity": "inhibition", "value": "0.4%"}
{"Compound": "CS(=O)(=O)Nc1cccc(-c2csc(NC(=O)CSc3nc4nccnc4c(=O)n3CCc3ccccc3)n2)c1", "target": "LYN", "assay": "kinase activity, inhibitor", "conditions": "10 µM", "quantity": "inhibition", "value": "3%"}
